Results gathered from unrelated publications.
Several values in a cell are separate wells, animals, samples, runs or records.
CDK16: Cyclin-dependent kinase 16 (CDK16, Homo sapiens, UniProt Q00536)
UniProt Q00536, sequence (whole entry, looked up): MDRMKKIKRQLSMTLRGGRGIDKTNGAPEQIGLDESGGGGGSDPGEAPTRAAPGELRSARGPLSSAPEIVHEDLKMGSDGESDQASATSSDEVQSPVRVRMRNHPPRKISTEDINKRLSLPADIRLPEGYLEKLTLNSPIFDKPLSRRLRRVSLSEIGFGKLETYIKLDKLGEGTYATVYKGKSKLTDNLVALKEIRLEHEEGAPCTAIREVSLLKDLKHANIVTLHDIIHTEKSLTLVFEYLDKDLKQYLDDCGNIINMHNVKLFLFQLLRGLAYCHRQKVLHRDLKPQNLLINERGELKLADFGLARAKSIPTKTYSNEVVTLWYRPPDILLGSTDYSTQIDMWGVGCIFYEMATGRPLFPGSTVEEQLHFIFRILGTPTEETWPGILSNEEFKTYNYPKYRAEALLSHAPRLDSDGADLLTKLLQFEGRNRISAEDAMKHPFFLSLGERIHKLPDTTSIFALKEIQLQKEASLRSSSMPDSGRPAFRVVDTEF
CDK16 with cyclin Y: Cyclin-dependent kinase 16, with cyclin Y (CDK16, Homo sapiens, UniProt Q00536)

Compound | target | assay | test system | setting | scale | endpoint | value
Cc1ccc(-c2c(/C=C(\C#N)C(=O)NC(C)C)n(CCCO)c3ncnc(N)c23)cc1 | CDK16 | cell-free assay, competition with immobilised ligand | – | 1 µM | – | remaining binding | 100%
CN1CCN(Cc2ccc(NC(=O)c3cccc(C#Cc4cnc(N)c5ncccc45)c3)cc2C(F)(F)F)CC1 | CDK16 | cell-free assay, competition with immobilised ligand | – | 0.5 µM | – | remaining binding | 62%
COCC12C(=O)NC3C4(C(OC)CC1O)C1CC5(O)C(OC)C(O)C(OC(C)=O)(C1C5OC(=O)c1ccccc1)C3(O)C(OC)C24 (stereo not shown) | CDK16 | kinase activity, inhibitor, ProQinase kinase profiling | – | 25 µM | reference: control | remaining activity | 86% and 96%
C=CC(=O)Nc1cc(-c2nn(C3CCN(CCNC(=O)[C@H](C)CCC45CC6CC(CC(C6)C4)C5)CC3)c3ncnc(N)c23)ccc1Oc1ccccc1 | CDK16 | inhibitor, KiNativ profiling | biochemical | 2 µM | – | inhibition | 10.7%
CCn1cc(C(=O)O)c(=O)c2c(N)c(F)c(NC3CCCCC3)cc21 | CDK16 with cyclin Y | kinase activity | – | 0.1 µM, added: ATP at Km | – | inhibition | 38.3%
CNC1C[S+]2CC[S+]3CC[S+](C1)[Ru-4]321([N]=C=S)[n]2c3ccc(OC)cc3c3c4c(c5cc(F)c[n+]1c5c32)C(=O)NC4=O (stereo not shown) | CDK16 | KinomeScan | – | 0.1 µM | reference: untreated | remaining binding | 100%
C=CC(=O)N1CCCC(n2c(=O)c3ncccc3n(Cc3ccc(Oc4ccccc4)cc3)c2=O)C1 (stereo not shown) | CDK16 | cell-free assay, competition with immobilised ligand | – | 1 µM | – | remaining binding | 67%
CNS(=O)(=O)Nc1nccc(Cc2c(C)c3ccc(Oc4ncccc4F)cc3oc2=O)c1F | CDK16 | binding, competition with immobilised ligand | – | 10 µM | – | remaining binding | 100%
CN1CCN(Cc2ccc(-c3ccc(CO[C@H]4CCC[C@@H]4NC(=O)c4cc(-c5cnn(C)c5)cnc4N)cc3)cc2)CC1 | CDK16 with cyclin Y | enzyme activity, inhibitor | – | 0.1 µM | – | inhibition | -2%
Cc1cnc2nc1Nc1cccc(c1)COC/C=C/COCc1cc(ccc1OCCN1CCOCC1)N2 | CDK16 | binding, competition with immobilised ligand | – | 0.1 µM | – | remaining binding | 82%
COc1cc(Nc2nccc(-c3cnn4nc(OC)ccc34)n2)cc(C(F)(F)F)c1 | CDK16 | binding, competition with immobilised ligand | – | 1 µM | – | remaining binding | 100%
Nc1ncc2c(n1)-c1c([nH]c3ccc(C4=CCOCC4)cc13)CCC2 | CDK16 | binding, competition with immobilised ligand | – | 1 µM | – | remaining binding | 77%
COc1ccc(NC(=O)Nc2ccc3c(c2)C(=O)N(C(C)CO)CC(C)C(CN(C)Cc2ccc4c(c2)OCO4)O3)cc1 (stereo not shown) | CDK16 | binding, competition with immobilised ligand | – | 10 µM | – | remaining binding | 95%

For quick reference, copied from above:
Compound | target | assay | test system | setting | scale | endpoint | value
Nc1ncc2c(n1)-c1c([nH]c3ccc(C4=CCOCC4)cc13)CCC2 | CDK16 | binding, competition with immobilised ligand | – | 1 µM | – | remaining binding | 77%
